# Published values gathered from unrelated publications.
# Each line is one published result; not all experiments were run side by side.
# Cell line: LNCaP
SMILES,observed,technique,tested at,time,measurement,result
O=C(C[Se]C(=O)c1cc2ccccc2s1)Nc1cccc(C(F)(F)F)c1,cell growth or viability,MTS,,48 h,IC50,13.9 µM
Nc1nnc(-c2ccccc2O)cc1N1CC2CCC(C1)N2c1ccnc(C#CCCN2CCCCCC2)c1,cell growth or viability,ATP luminescence,,7 days,IC50,0.013 µM
O=C(C[Se]C(=O)c1cccnc1Nc1cccc(C(F)(F)F)c1)Nc1cccc(C(F)(F)F)c1,,caspase 3/7,10 µM,48 h,late apoptotic/dead cells,43%
CCOc1cncc(-c2ccc(NC(=O)C3(c4ccnc(NS(=O)(=O)C5CC5)n4)CCOCC3)nc2)n1,cell growth or viability,ATP luminescence,,72 h,IC50,2.81 µM
CNS(=O)(=O)Nc1nccc(Cc2c(C)c3ccc(Oc4ncccc4F)cc3oc2=O)c1F,cell viability,,,7 days,IC50,> 1 µM
CCc1cc(N2C(=S)N(c3ccc(C#N)c(C(F)(F)F)c3)C(=O)C2(C)C)ccc1OCCN1CCN(CC(=O)Nc2cccc(NC3CCC(=O)NC3=O)c2)[C@H](C)C1 (some centres unmarked),androgen-stimulated proliferation,,,168 h,GI50,0.004 µM
O=C(O)C(Cc1c[nH]cn1)N1C(=O)c2ccc3c4ccc5c6c(ccc(c7ccc(c2c37)C1=O)c64)C(=O)N(C(Cc1c[nH]cn1)C(=O)O)C5=O (centres unmarked),cell growth or viability,SRB,,72 h,IC50,> 100 µM
CC(CCC(=O)[O][Pt]([NH2])([NH2])([OH])([Cl])[Cl])C1CCC2C3CCC4CC(O)CCC4(C)C3CCC12C (centres unmarked),cell growth or viability,MTT,,72 h,IC50,9.3 µM
CC(C)c1ccc(N(C)c2ccc3c(c2)OCC[C@H]3CNc2cnccc2C(=O)O)cc1,cell growth or viability,ATP luminescence,,7 days,IC50,0.00465 µM
O=C(C[Se]C(=O)c1ccccc1Nc1cccc(C(F)(F)F)c1)Nc1cccc(C(F)(F)F)c1,cell growth or viability,MTS,,48 h,IC50,9.27 µM
C=C(NC(=O)c1csc(-c2ccc(NC(=O)CCCCCBr)cc2)n1)C(=O)NC(=C)C(=O)OC,cell growth or viability,,,,EC50,11.4 µM
CCCCCCC(=O)[O][Pt]([NH2])([NH2])([Cl])([Cl])[O]C(=O)CCC(C)C1CCC2C3CCC4CC(O)CCC4(C)C3CCC12C (centres unmarked),cell growth or viability,MTT,,72 h,IC50,1.2 µM
C=C(NC(=O)c1csc(-c2cccnc2)n1)C(=O)NC(=C)C(=O)OC,cell growth or viability,,,,EC50,17.5 µM
O=C1c2ccc3c4ccc5c6c(ccc(c7ccc(c2c37)C(=O)N1CCN1CCCCC1)c64)C(=O)N(CCN1CCCCC1)C5=O,cell growth or viability,SRB,,72 h,IC50,87.1 µM

# For quick reference, copied from above:
SMILES,observed,technique,tested at,time,measurement,result
C=C(NC(=O)c1csc(-c2ccc(NC(=O)CCCCCBr)cc2)n1)C(=O)NC(=C)C(=O)OC,cell growth or viability,,,,EC50,11.4 µM
CCCCCCC(=O)[O][Pt]([NH2])([NH2])([Cl])([Cl])[O]C(=O)CCC(C)C1CCC2C3CCC4CC(O)CCC4(C)C3CCC12C (centres unmarked),cell growth or viability,MTT,,72 h,IC50,1.2 µM
